Measured values from different studies.
Several values in a cell are separate wells, animals, samples, runs or records.
ache: Acetylcholinesterase (ache, Electrophorus electricus, UniProt O42275)
Sequence of UniProt O42275 (whole entry, looked up): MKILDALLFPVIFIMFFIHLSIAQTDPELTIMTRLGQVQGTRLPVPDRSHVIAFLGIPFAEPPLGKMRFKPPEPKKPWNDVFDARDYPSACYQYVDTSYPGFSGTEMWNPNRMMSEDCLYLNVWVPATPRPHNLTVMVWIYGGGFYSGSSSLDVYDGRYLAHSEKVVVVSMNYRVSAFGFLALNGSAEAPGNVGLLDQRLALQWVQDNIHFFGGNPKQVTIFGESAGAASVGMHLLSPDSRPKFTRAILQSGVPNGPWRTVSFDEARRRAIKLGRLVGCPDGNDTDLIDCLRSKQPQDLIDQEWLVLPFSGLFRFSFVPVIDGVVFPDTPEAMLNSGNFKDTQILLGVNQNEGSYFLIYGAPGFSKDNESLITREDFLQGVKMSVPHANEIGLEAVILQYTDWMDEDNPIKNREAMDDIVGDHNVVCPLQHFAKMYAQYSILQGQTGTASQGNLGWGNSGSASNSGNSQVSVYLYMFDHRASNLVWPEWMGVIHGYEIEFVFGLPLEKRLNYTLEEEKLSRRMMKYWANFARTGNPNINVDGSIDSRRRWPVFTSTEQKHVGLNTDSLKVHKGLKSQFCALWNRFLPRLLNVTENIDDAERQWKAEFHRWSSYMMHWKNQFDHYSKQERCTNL
Sequence of UniProt Q9UM07 (whole entry, looked up): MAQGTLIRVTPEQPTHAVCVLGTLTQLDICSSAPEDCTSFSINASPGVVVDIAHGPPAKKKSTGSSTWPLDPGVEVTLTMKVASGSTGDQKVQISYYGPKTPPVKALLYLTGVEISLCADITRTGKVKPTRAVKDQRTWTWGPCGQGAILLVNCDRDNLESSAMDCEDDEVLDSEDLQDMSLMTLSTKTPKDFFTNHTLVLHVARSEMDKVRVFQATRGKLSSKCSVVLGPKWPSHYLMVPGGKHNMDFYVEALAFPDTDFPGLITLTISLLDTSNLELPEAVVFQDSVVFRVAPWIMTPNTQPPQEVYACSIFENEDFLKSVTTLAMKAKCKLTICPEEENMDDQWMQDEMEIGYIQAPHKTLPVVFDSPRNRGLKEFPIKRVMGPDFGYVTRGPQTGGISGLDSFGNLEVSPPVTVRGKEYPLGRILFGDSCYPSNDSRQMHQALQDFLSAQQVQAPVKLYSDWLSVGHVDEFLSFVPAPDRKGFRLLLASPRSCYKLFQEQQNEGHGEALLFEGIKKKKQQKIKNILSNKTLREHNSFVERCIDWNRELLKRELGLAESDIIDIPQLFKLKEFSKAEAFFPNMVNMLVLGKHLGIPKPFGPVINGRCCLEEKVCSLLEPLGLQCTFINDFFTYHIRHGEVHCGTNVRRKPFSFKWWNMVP
Sequence of UniProt Q9BUB5 (whole entry, looked up): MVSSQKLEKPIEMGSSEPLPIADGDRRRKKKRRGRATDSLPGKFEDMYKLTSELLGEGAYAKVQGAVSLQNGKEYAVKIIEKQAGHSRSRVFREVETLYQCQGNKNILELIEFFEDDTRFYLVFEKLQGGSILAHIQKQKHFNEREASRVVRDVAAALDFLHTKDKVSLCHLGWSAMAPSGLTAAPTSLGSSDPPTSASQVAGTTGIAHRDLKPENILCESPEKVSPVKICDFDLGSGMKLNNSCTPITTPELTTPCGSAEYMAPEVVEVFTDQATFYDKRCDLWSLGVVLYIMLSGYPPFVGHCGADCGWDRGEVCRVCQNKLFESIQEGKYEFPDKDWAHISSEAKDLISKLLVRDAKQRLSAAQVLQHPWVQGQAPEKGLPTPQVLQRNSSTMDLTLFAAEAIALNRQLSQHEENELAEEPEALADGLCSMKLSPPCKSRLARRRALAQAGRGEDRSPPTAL
Sequence of UniProt P51817 (whole entry, looked up): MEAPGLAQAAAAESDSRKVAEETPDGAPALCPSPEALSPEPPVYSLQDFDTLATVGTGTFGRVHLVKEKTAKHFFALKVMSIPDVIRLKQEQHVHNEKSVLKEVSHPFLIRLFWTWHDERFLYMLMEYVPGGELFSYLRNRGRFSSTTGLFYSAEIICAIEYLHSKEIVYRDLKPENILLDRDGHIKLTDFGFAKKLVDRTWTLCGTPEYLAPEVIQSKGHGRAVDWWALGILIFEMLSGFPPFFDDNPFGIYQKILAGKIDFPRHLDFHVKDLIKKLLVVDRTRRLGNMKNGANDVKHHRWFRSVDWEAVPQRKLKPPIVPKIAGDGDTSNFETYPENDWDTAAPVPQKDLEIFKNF
Sequence of UniProt P16233 (whole entry, looked up): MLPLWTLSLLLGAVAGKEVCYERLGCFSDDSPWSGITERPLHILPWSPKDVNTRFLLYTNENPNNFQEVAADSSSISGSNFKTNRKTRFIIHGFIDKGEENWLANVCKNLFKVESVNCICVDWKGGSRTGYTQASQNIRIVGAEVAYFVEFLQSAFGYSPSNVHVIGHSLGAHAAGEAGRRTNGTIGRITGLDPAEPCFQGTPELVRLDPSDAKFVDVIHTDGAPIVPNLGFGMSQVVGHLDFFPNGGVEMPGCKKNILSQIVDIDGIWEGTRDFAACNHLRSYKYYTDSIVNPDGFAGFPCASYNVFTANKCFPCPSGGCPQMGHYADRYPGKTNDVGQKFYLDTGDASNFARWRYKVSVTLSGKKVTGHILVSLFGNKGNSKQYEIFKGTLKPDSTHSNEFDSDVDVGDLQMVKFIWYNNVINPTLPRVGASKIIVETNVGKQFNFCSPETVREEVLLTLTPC
Sequence of UniProt P07949 (whole entry, looked up): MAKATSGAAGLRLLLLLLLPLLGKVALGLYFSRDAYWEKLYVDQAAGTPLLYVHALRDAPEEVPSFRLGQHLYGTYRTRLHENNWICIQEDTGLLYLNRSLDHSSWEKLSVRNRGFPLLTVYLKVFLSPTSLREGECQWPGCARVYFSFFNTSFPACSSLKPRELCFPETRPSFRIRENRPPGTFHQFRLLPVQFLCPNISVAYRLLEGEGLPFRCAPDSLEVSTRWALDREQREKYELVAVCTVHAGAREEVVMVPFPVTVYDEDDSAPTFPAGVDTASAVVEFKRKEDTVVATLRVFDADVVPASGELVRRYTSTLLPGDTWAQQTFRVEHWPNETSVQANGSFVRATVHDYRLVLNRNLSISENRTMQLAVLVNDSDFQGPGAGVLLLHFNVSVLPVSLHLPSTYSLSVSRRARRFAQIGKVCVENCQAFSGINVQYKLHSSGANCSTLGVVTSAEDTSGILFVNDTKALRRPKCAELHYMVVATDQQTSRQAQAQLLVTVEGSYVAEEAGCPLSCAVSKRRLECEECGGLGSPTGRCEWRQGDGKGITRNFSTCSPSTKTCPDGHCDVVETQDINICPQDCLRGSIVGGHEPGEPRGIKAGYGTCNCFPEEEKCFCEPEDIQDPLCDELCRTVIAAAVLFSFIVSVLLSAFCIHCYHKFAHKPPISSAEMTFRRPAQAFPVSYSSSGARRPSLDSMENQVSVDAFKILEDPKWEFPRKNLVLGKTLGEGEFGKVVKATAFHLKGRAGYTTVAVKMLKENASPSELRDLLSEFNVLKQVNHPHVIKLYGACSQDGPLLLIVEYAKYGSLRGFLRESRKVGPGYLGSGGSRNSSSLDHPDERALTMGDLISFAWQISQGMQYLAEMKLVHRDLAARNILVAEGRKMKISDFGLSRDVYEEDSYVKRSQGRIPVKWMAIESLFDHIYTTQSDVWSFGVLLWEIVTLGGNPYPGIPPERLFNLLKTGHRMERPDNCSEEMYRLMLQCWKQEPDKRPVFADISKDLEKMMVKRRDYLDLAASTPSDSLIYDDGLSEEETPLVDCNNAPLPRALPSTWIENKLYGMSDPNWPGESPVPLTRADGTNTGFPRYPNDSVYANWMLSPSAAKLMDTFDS
Sequence of UniProt P17948 (whole entry, looked up): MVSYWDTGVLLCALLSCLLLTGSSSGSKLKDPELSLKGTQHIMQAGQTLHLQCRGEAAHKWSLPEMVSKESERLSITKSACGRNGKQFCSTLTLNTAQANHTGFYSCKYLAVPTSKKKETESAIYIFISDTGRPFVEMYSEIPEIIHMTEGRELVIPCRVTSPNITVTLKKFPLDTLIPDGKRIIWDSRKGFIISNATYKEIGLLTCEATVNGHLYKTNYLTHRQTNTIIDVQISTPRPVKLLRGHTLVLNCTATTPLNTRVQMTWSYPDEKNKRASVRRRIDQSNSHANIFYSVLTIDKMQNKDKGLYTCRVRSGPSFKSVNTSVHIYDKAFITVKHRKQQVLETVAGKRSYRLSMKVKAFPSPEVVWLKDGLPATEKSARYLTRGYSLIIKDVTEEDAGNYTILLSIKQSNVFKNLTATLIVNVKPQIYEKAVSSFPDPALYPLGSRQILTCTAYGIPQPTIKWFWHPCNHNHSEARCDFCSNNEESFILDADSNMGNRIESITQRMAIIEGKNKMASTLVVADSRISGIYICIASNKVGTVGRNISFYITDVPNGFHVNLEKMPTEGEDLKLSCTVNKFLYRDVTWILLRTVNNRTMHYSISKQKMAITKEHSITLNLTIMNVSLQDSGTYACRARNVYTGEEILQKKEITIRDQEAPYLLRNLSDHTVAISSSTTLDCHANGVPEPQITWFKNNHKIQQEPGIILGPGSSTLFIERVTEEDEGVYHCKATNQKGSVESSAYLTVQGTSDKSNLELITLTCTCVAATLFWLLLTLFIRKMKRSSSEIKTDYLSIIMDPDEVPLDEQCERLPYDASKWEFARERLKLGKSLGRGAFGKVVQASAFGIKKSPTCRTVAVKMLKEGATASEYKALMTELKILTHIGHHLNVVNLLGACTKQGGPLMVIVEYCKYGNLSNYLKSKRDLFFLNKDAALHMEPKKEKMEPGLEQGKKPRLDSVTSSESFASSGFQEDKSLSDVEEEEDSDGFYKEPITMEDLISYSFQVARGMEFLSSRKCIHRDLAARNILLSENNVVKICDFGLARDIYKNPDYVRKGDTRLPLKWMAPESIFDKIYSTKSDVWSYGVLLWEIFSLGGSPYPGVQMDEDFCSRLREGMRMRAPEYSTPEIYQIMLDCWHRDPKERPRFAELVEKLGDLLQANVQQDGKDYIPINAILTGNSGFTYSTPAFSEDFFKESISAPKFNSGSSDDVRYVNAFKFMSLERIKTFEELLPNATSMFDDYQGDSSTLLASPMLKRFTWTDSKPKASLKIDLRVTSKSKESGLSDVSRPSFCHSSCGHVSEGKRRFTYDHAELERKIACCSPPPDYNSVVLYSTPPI

| SMILES | target | test | test system | conditions | scale | measurement | result |
| --- | --- | --- | --- | --- | --- | --- | --- |
| O=C(O)c1cc(O)c2c(c1)[C@H]([C@H]1c3cc(C(=O)O)cc(O)c3C(=O)c3c(O[C@@H]4O[C@H](CO)[C@@H](O)[C@H](O)[C@H]4O)cccc31)c1cccc(O[C@@H]3O[C@H](CO)[C@@H](O)[C@H](O)[C@H]3O)c1C2=O | PNLIP (Homo sapiens, UniProt P16233) | enzyme activity, inhibitor, fluorescence |  | 50 µM |  | remaining activity | 5.44% |
| Cc1ccc(N2CC3CCC(C2)N3C)cc1C(=O)N[C@H](C)c1cc(-c2cnn(C)c2)nc2ccccc12 | UCHL1 (Homo sapiens, UniProt P09936) | enzyme activity |  | 30 µM, 0.5 h |  | remaining activity | 109% |
| Cc1ccc(-c2csc(NN=C(C=Cc3ccc(Cl)cc3)C(=O)O)n2)cc1 | ache | Ellman |  |  | reference: IC50 BChE over IC50 AChE | selectivity index | 4.65 |
| OB(O)c1cnn(-c2cccc(Cl)c2)c1 | Chymotrypsinogen A (Bos taurus, UniProt P00766) | pNA substrate hydrolysis |  |  | reference: Ki protease over Ki AmpC | selectivity ratio | 8 |
| N[C@H](C(=O)N1CCCC1)C1CCN(c2nccc3c(-c4ncc(Cl)cc4Cl)cccc23)CC1 | PADI4 (Homo sapiens, UniProt Q9UM07) | enzyme activity |  | 9.6 µM, high-affinity site, with: Ca2+ 1.5 mM |  | kcat | 0.128 s⁻¹ and 0.182 s⁻¹ |
| CC(C)[C@H]1NC(=O)C[C@H]2/C=C/CCSSC[C@@H](NC1=O)C(=O)N[C@H](Cc1cccc3ccccc13)C(=O)NCC(=O)O2 | RET (Homo sapiens, UniProt P07949) | enzyme activity, inhibitor |  | 10 µM |  | inhibition | 9.8% |
| O=C(Cc1ccc(Cl)c(Cl)c1)N1CCN(S(=O)(=O)C2CC2)[C@@H]2COC[C@H](N3CCCC3)[C@H]21 (single isomer, unassigned) | OPRK1 (Homo sapiens, UniProt P41145) | β-arrestin-2 recruitment, agonist | U2OS | 1.5 h | reference: U-69593 maximal response | Emax | 48% |
| CCCCN(C=O)c1c(CC)nc2ccc(C(=O)N(C)Cc3ccco3)cn12 | ache | inhibitor |  | 5 µM |  | activity | active |
| CN(C)[C@H]1C[C@@]23CC[C@@]4(O2)C(=CC[C@]2(C)[C@@H](c5ccc6ccncc6c5)CC[C@H]24)C=C3[C@@H](O)[C@@H]1O | CDK12 (Homo sapiens, UniProt Q9NYV4) | ATP probe labelling, inhibitor, KiNativ profiling |  | 0.1 µM |  | inhibition | 6.9% |
| CCOC(=O)[C@@H]1Cc2c(cc([N+](=O)[O-])cc2[N+](=O)[O-])[C@H](O)[C@]12C(=O)Nc1ccc(Br)cc12 | MKNK1 (Homo sapiens, UniProt Q9BUB5) | binding, competition with immobilised ligand |  | 0.1 µM |  | remaining binding | 94% |
| O=C1NC(=O)c2c1c1cc(F)c[n+]3c1c1c2c2cc(O)ccc2[n]1[Ru-4]312([N]=C=S)[S+]3CC[S+]1CC[S+]2CC3 (stereo not shown) | PRKX (Homo sapiens, UniProt P51817) | enzyme activity |  | 100 nM, human enzyme, with: 10 µM ATP | reference: untreated | remaining activity | 36% |
| CC1=CC(C)=[N+]2C1=C(CCCCN1CC=C(c3ccccc3)CC1)c1c(C)cc(C)n1[B-]2(F)F | SLC6A9 (Homo sapiens, UniProt P48067) | cell-free assay |  | 1 µM |  | remaining signal | 82.7% |
| CS(C)(=O)=Nc1ccc(-c2ccc(-c3nc4cc(O[C@@H]5CO[C@H]6[C@@H]5OC[C@H]6O)[nH]c4cc3F)cc2)cc1 | FLT1 (Homo sapiens, UniProt P17948) | enzyme activity, inhibitor |  | 10 µM |  | inhibition | 12% |

Some of these lines once more:
| SMILES | target | test | test system | conditions | scale | measurement | result |
| --- | --- | --- | --- | --- | --- | --- | --- |
| O=C(O)c1cc(O)c2c(c1)[C@H]([C@H]1c3cc(C(=O)O)cc(O)c3C(=O)c3c(O[C@@H]4O[C@H](CO)[C@@H](O)[C@H](O)[C@H]4O)cccc31)c1cccc(O[C@@H]3O[C@H](CO)[C@@H](O)[C@H](O)[C@H]3O)c1C2=O | PNLIP (Homo sapiens, UniProt P16233) | enzyme activity, inhibitor, fluorescence |  | 50 µM |  | remaining activity | 5.44% |
